Assay results gathered from unrelated publications.
Lines come from different studies, so protocols differ. Values joined by “and” are separate records of one study, mostly repeats; a detail may differ. ± marks the error that the study gave. ≈ marks a conversion by molar mass, not a printed value.

O=C1NCCc2nc(OCc3cccc(F)c3)ccc21  Irwin test score (refers to: Convulsions; Sprague-Dawley rat male; oral, 100 mg/kg, 0 min; reference: baseline, direction not given): 0
CCN(CC)Cc1ccc2cc(COC(=O)Nc3ccc(C(=O)NO)cc3)ccc2c1  stability relative error (rat plasma; 800 ng/mL, 4 h, 10 °C, autosampler; reference: nominal concentration): 96.2%
C[C@H]1CN(C(=O)CC#N)[C@]12CCN(c1ncnc3[nH]ccc13)C2  half-life, median or range (healthy adults, plasma; oral, 3 mg single dose): 2.2 h
CNCc1ccc(-c2[nH]c3cc(F)cc4c3c2CCNC4=O)cc1  nausea incidence (human patients; oral, 360 mg twice daily, all grades): 75%
COc1ccc2nc(COc3ccc(CC4SC(=O)NC4=O)cc3)n(C)c2c1 (centres unmarked)  thermodynamic solubility (aqueous buffer; pH 7.4): > 2290 µg/mL
CN1C[C@H](COc2nccc3c(NCc4ccco4)cc(Cl)nc23)OC1=O  general condition (rat Crl:CD(SD) male; oral, 1000 mg/kg, single dose): negative
O=c1[nH]c(=O)n([C@@H]2O[C@H](CO)[C@@H](O)[C@@H]2F)cc1CCCCC[18F]  time to peak radioactivity (PET; mice, RG2 tumour xenograft, tumour; dose not given): ~8 min
CCN1/C(=C/C(C)=O)Sc2ccc(F)cc21  QTc interval change (cynomolgus monkey; oral, 100 mg/kg, 24 h post-dose; reference: pre-dose): 98.2 ± 2.7%
COc1ccc([C@@H](O)c2cc(-c3ncnc4cc(N5CCOCC5)ccc34)c(F)cc2Cl)nn1  fatigue TEAE incidence (locally advanced rectal cancer patients; 250 mg, added: capecitabine and radiotherapy): 0%
CCCCC[C@H]1CC[C@H](c2ccc(OCC)c(F)c2F)CC1  median placental accumulation (rat, placenta; 10 ng/mL in perfusate, low dose, mixture of 21 LCMs): 21.9 ng/g
Cn1cc(Nc2nccc(-c3ccc4c(c3)CN(C3COC3)CC[C@H]4NC(=O)c3cn(C(C)(C)C)nn3)n2)cn1  B cell count change (human, whole blood; 300 mg twice daily, day 14; reference: pre-dose baseline): 42.9%
CC(C)(C(=O)N1CCOc2c(C#N)cncc2C1)C(F)F  subjects with adverse event (refers to: Restlessness; human; oral, 20 mg once daily, 14 days, multiple ascending dose): 0%
OC[C@H]1O[C@@H](Oc2cc3c(O)cc(O)cc3[o+]c2-c2cc(O)c(O)c(O)c2)[C@H](O)[C@@H](O)[C@@H]1O  hue angle (CIELAB from visible spectra; aqueous buffer; 50 µM, pH 7, ±BSA 600 µM or lysozyme 1000 µM): 350.6 ± 1.09 degrees
CCc1cc(C(=O)NC)c2nccc(N3CCc4c(cc(Cn5ccnc5)cc4-c4cn(C)nc4C(F)(F)F)C3=O)c2c1  change in clinical chemistry or haematology parameter (refers to: Baso; Sprague Dawley rat; oral, 50 mg/kg once daily, 7 days; reference: vehicle): 5.88%
Cc1cc(Nc2cc3ncccc3c(N[C@@H]3C[C@H]4CC[C@@H](C3)N4CCC#N)n2)n[nH]1  AUC(0-4) (human, plasma; 20 mg, day 14, geometric mean): 0.525 ng·h/mL
Cc1ccc(C(=O)N(CCCN)C(c2nc3snc(C)c3c(=O)n2Cc2ccccc2)C(C)C)cc1 (centres unmarked)  grade ≥3 fatigue patients (human patients; intravenous, 2 mg/day): 17%
c1csc(CNc2cc[nH]n2)c1  tail DNA (mean) (DNA damage, alkaline comet; Hsd:ICR(CD-1) mice, female, liver; oral gavage, 250 mg/kg/day, 3 days): 5.8%
Cn1cc(Nc2nc(N)nc(-c3cccc(-n4ccc5cc(C6CC6)cc(F)c5c4=O)c3CO)n2)cn1  nausea incidence (healthy humans, fed; oral tablet, 300 mg twice daily (multiple dose), 14 (unit not given); reference: subjects): 1%
O=C(Nc1nc2cccc(-c3ccc(CN4CCS(=O)(=O)CC4)cc3)n2n1)C1CC1  treatment-emergent adverse events (refers to: body temperature increased; human rheumatoid arthritis patients; oral, 200 mg once daily, 4 weeks, regardless of relatedness): 0%
CN1CCC[C@H](CN2c3ccccc3Sc3ccccc32)C1.Cl  Tmax (ICR mouse female fasted, heart; oral, 16 mg/kg): 0.5 h
COc1cc2nccc(Oc3ccc(NC(=O)c4cc5c(n(-c6ccccc6)c4=O)CCCC5=O)nc3)c2cc1OC  patients with TEAEs grade ≥3 (human, relapsed/refractory AML; oral, dose not given, CTCAE, all doses combined): 95%
O=S(=O)(NCc1ccccn1)c1ccc(Cl)c(Cl)c1Cl  thermodynamic solubility (aqueous buffer; pH 7.4): 30.4 µM
Cn1cc(-c2cn3nccc3c(-c3cnn([C@]4(CC#N)C[C@@H](C#N)C4)c3)n2)cn1  MRT (healthy human, plasma; 400 mg once daily, day 10, multiple dose, fed, geometric mean): 9.6 h
Cc1cc(NC2CCN(C(=O)OC3CCN(C(=O)/C=C/CN(C)C)C3)CC2)n2ncc(C(C)C)c2n1 (centres unmarked)  patients with Flatulence (patients with advanced solid tumours; dose not given, QD arm, grade 3 or higher): 0%
Cc1c(-c2ccc(N3CCc4cccc(C(=O)Nc5nc6ccccc6s5)c4C3)nc2C(=O)O)cnn1CC12CC3(C)CC(C)(C1)CC(OCCNCC[C@H](O)CO)(C3)C2  mean arterial pressure change (beagle dog, male, anaesthetised; intravenous infusion, 0.01 mg/kg/min, 60 min; reference: baseline): -1 mmHg
Cl.[2H]C([2H])([2H])CC(=O)c1cnc(NC(=O)C2CC2)cc1Nc1cccc(-c2ncn(C([2H])([2H])[2H])n2)c1OC  AUC(0-inf) (geometric mean; human; oral, 17.5 mg single dose, fasted, liquid): 1920 ng·h/mL
Cc1ccc(Sc2ccccc2N2CCNCC2)c(C)c1  participants with TEAE (refers to: protein in urine; healthy adult women; oral, 10 mg daily, 12 days): 0%
C[C@@H](c1ccc2nccn2c1)n1nnc2ncc(-c3cnn(C)c3)nc21  incidence of treatment-related AEs (refers to: any AE; EGFR-mutant MET-altered NSCLC patients; oral, dose not given, AE grade ≥3, all): 28%
CCCC1CCC(C2CCC(c3cc(F)c(F)c(F)c3)CC2)CC1 (centres unmarked)  median fetal accumulation (rat, fetus; 5000 ng/mL in perfusate, high dose, mixture of 21 LCMs): 4.25 ng/g
C=CCN1CC(=O)N2[C@@H](Cc3ccc(O)cc3F)C(=O)N(Cc3cccc(N4CC(N5CCN(CC)CC5)C4)n3)C[C@@H]2N1C(=O)NCc1ccccc1  treatment-related vomiting (advanced solid tumour patients; oral, 100 mg twice daily, grade ≥3, dose-escalation): 0%
c1ccc(-c2nc(N3CCc4cccnc4C3)c3ccccc3n2)nc1  kinetic solubility (Japanese Pharmacopoeia disintegration test solution 2; pH 6.8): 77 µg/mL (≈ 227 µM)
CC=CC1CCC(C2CCC(CCC)CC2)CC1 (centres unmarked)  median placental accumulation (rat, placenta; 1000 ng/mL in perfusate, middle dose, mixture of 21 LCMs): 10.4 ng/g
N[C@@H](CC(=O)N1CCc2c(nc(C(F)(F)F)nc2C(F)(F)F)C1)CN1CC(F)(F)CCC1=O  apparent clearance CL/F (healthy Korean adults, fasted, plasma; oral, 50 mg single dose, separate tablets, added: enavogliflozin 0.3 mg): 37200 ± 7200 mL/h
C=CC(=O)N(C)CCOc1c(N)ncnc1-c1cc(F)cc(NC(=O)c2ccc(C3CC3)cc2F)c1C  AUC (human, whole blood; oral, 100 mg twice daily, day 1): 337 ng·h/mL
NC(=O)N1c2ccccc2CC(O)c2ccccc21 (centres unmarked)  clearance (population PK modelling; human patients, plasma; joint parent-metabolite model): 3.06 L/h
COc1cc2c3c(n(CCCN4CCOCC4)c(=O)c2cc1OC)-c1cc2c(cc1C3=O)OCO2  Vz/F (beagle dog, female, plasma; oral, 1720 mg/m^2, gelatin capsule): 9200 L/m² and 19900 L/m²
Cc1cccc(CNC(=O)c2cn(CCNC(=O)c3ccccc3Sc3c([N+](=O)[O-])ncn3C)c3cc4c(cc3c2=O)OC(F)(F)O4)n1  AUC(0-inf) (Sprague-Dawley rat, male, whole blood; intramuscular, 30 mg/kg of parent compound): 109 ng·h/mL
N#Cc1ccc2c(c1)[C@H]1CCCN(C(=O)c3ccc4[nH]cnc4c3)[C@H]1C2  total testosterone (human females; 80 mg, end of trial): 1.4 nmol/L
Cc1nc2cccc(OCC(C)(C)C(=O)NC(C)C)c2c(N)c1C(=O)O  mean body weight change (Swiss albino CD-1 mouse; oral, 500 mg/kg, 24 h): 0.5 ± 0.6 g
N#CCC1CCN(c2nc(Nc3ccc(N4CCC(O)CC4)cc3)c3c(=O)[nH]ncc3n2)CC1  t1/2 (human, plasma; oral, 20 mg once daily, day 15): 7.33 h
C1=C/COCc2cc(ccc2OCCN2CCCC2)Nc2nccc(n2)-c2cccc(c2)COC/1  stability relative error (rat plasma; 600 ng/mL, 4 h, room temperature; reference: nominal concentration): 1.25%
CC(C)NCCCC[C@@H]1NC(=O)[C@H](Cc2ccc(O)cc2)NC(=O)[C@H](Cc2ccccc2)NC(=O)CC[C@H](C(=O)N[C@@H](CCCCNC(C)C)C(=O)N[C@@H](CCCCNC(=O)[C@H](CCC(=O)O)NC(=O)[C@H](CCC(=O)O)NC(=O)[C@H](CCC(=O)O)NC(=O)CN2CCN(CC(=O)O)CCN(CC(=O)O)CCN(CC(=O)O)CC2)C(N)=O)NC(=O)CNC(=O)[C@H](Cc2ccc3ccccc3c2)NC(=O)[C@@H](CCCNC(=N)N)NC1=O [gallium-68 labelled]  tissue uptake (mouse with Z-138 xenograft, bone; intravenous, 1 h): 0.09 %ID/g
C[C@@H]1COCCN1c1cc(C2([S@](C)(=N)=O)CC2)nc(-c2cc[nH]c3nccc2-3)n1  Paronychia incidence (Japanese advanced solid tumour patients; oral, 240 mg twice daily, any grade): 0%
COc1cc(C(=O)NC2CCN(C)CC2)c(F)cc1Nc1ncc(C(F)(F)F)c(Oc2cccc3c2C(=O)N(C)C3)n1  dose-normalised Cmax at steady state (human patients, plasma; oral, 10 mg once daily repeated, geometric mean): 5.92 nmol/L per mg
Nc1ncnc2c1ncn2[C@H]1C[C@@H]2OP(=O)(O)OC[C@H]3O[C@@H](n4cnc5c(N)ncnc54)C[C@@H]3OP(=O)(O)OC[C@H]2O1  haematocrit (non-tumor-bearing mice, blood; intravenous, 1 mg/kg, toxicity study): 25.1 ± 1.39%
CCCOc1ccc(NC(=O)CN2CCN(C)CC2)cc1-c1nc(CC)c(CC)c(=O)[nH]1  AUEC(0-4 h) pulse rate (healthy Chinese men; 10 mg, added: alcohol 0.5 g/kg): 29.5 ± 21.2 h·bpm
COc1cccc(OC)c1-c1cc(C(=O)NC2(C(=O)O)C3CC4CC(C3)CC2C4)nn1-c1ccc(C(=O)N(C)CCCN(C)CCCN(C)C(=O)CN2CCN(CC(=O)[O-])CCN(CC(=O)[O-])CCN(CC(=O)[O-])CC2)cc1C(C)C.[177Lu+3] (centres unmarked)  tumour-to-lung ratio (mouse, HT-29 xenograft; 4 h post injection, biodistribution; reference: tumour over lung uptake): 4.63
OC[C@H]1OC(O)[C@H]([18F])[C@@H](O)[C@@H]1O (some centres unmarked)  SUVmean (PET; mouse, MM.1S xenograft, tumour; 60 min post-injection): 0.53 ± 0.02 g/mL
CNC(=O)c1ccc(-c2cnc3ncc(Cc4ccc5ncccc5c4)n3n2)cc1F  adverse event incidence (phase 1 clinical trial, refers to: blood bilirubin increased; gastric cancer expansion cohort; oral, 600 mg twice daily, grade 3 or 4): 11%
O=C(N[C@H](Cc1c[nH]c2ccccc12)C(=O)Nc1ccncc1)c1ccc(-c2cc(C(F)(F)F)ccc2F)cc1F  concentration (Swiss Webster mouse, female, intestine; oral, 50 mg/kg, 8 h, 20% HPβCD vehicle): 2140 nM
C=CC(=O)Nc1cc(Nc2nccc(-c3cn(C)c4ccccc34)n2)c(OC)cc1N(C)CCN(C)C  recovery (storage stability; human dried blood spots; 24 h, -80 °C, low QC level): 98.2%
CO[C@@H]1[C@H](O)[C@@H](CO)O[C@H]1n1c([N+](=O)[O-])nc2c(=O)[nH]c(N)nc21  nucleoside remaining fraction (depurination, RP-HPLC; citrate-phosphate buffer 0.5 mM; 3960 min, pH 7, 37 °C): 0.512
CCc1nc(C(N)=O)c(Nc2ccc(N3CCC(N4CCN(C)CC4)CC3)c(OC)c2)nc1NC1CCOCC1  Cmax (Japanese patients, plasma; oral, 120 mg, cycle 1 day 28, multiple doses, median): 680 ng/mL
CC#CC(=O)N1CCC[C@H]1c1nc(-c2ccc(C(=O)Nc3ccccn3)cc2)c2c(N)nccn12  apparent clearance (CL/F) (population pharmacokinetics; patients): 134 L/h
CC(C)=CCC/C(C)=C/C(=O)O.Cc1cc(/C=C/C#N)cc(C)c1Nc1ccnc(Nc2ccc(C#N)cc2)n1  kinetic solubility (Capryol 90): ~50000 µg/mL
COc1ccc2c(c1)CN(C(=O)CCN1CCC(Cc3ccccc3)CC1)CC[S@@+]2[O-]  QTc (telemetry; conscious male beagle dogs; intravenous, 2 mg/kg, 2 h): 237 ± 10 ms

Repeated from above:
CO[C@@H]1[C@H](O)[C@@H](CO)O[C@H]1n1c([N+](=O)[O-])nc2c(=O)[nH]c(N)nc21  nucleoside remaining fraction (depurination, RP-HPLC; citrate-phosphate buffer 0.5 mM; 3960 min, pH 7, 37 °C): 0.512
CCc1nc(C(N)=O)c(Nc2ccc(N3CCC(N4CCN(C)CC4)CC3)c(OC)c2)nc1NC1CCOCC1  Cmax (Japanese patients, plasma; oral, 120 mg, cycle 1 day 28, multiple doses, median): 680 ng/mL
CC#CC(=O)N1CCC[C@H]1c1nc(-c2ccc(C(=O)Nc3ccccn3)cc2)c2c(N)nccn12  apparent clearance (CL/F) (population pharmacokinetics; patients): 134 L/h
CC(C)=CCC/C(C)=C/C(=O)O.Cc1cc(/C=C/C#N)cc(C)c1Nc1ccnc(Nc2ccc(C#N)cc2)n1  kinetic solubility (Capryol 90): ~50000 µg/mL
COc1ccc2c(c1)CN(C(=O)CCN1CCC(Cc3ccccc3)CC1)CC[S@@+]2[O-]  QTc (telemetry; conscious male beagle dogs; intravenous, 2 mg/kg, 2 h): 237 ± 10 ms
